Measurements collected from several papers.
Protocols differ between the studies behind these lines. Values joined by “and” are separate records of one study, mostly repeats; a detail may differ. ± marks the error that the study gave.

SMILES	test	test system	setting	scale	measurement	value
Cc1ccc([C@@H]2O[C@H](CO)[C@@H](O)[C@H](O)[C@H]2O)cc1Cc1ccc(-c2ccc(F)cc2)s1	–	human haemodialysis patients	–	–	longest half-life	19 h
Oc1ccc(/C=C/c2cc(O)cc(O)c2)cc1	–	rat, azoxymethane-injected, blood at sacrifice	10 mg/kg	–	albumin	4.8 g/dL
N#Cc1ccc2c(c1)[C@H]1CCCN(C(=O)c3ccc4[nH]cnc4c3)[C@H]1C2	–	human	240 mg, day 15	relative to: baseline	cortisol level change	-84 nmol/L
CO[C@@H]1[C@H](OC(=O)N2CC(CCN3CCOCC3)C2)CC[C@]2(CO2)[C@H]1[C@@]1(C)O[C@@H]1CC=C(C)C	–	human, plasma	subcutaneous, 4.8 mg, single dose	–	time to non-quantifiable plasma level	≤ 12 h
O=C(O)CCC(=O)O.[2H]C([2H])([2H])Oc1cc(C)c2[nH]ccc2c1CN1CC[C@@H](C2CC2)C[C@H]1c1ccc(C(=O)O)cc1	–	healthy Chinese subjects	dose not given, multiple ascending dose, pooled	relative to: subjects	subjects with TEAEs	70%
Cc1ccc(Sc2ccccc2N2CCNCC2)c(C)c1	–	healthy adult men	oral, 2.5 mg single dose, treatment-emergent adverse events	–	diarrhoea incidence	0%
Cc1ncnc2c1ccn2[C@@H]1C[C@H](Oc2cc(C(F)F)c(F)c3c2CNCC3)[C@@H](O)[C@H]1O	–	human	oral, 2 mg twice daily	relative to: AUC(tau) multiple over single dose	accumulation ratio	13.1 and 4.56
C=CC(=O)NC1CCN(c2ncc3ncnc(Nc4ccc(Oc5ccc6c(c5)ncn6C)c(C)c4)c3n2)CC1	–	healthy male volunteers, plasma	oral, 60 mg, tablet	–	dose-normalised AUC(0-t)	220 nmol·h/L/mg
CC1(C)CCC(CN2CCN(c3ccc(C(=O)NS(=O)(=O)c4ccc(NCC5CCOCC5)c([N+](=O)[O-])c4)c(Oc4cnc5[nH]ccc5c4)c3)CC2)=C(c2ccc(Cl)cc2)C1	UPLC-MS/MS	responders	oral, dose not given, 6 h, normalised to dose per body weight	–	dose-normalised C6 (C6/D)	0.49
Cc1cc(NC2CCN(C(=O)OC3CCN(C(=O)/C=C/CN(C)C)C3)CC2)n2ncc(C(C)C)c2n1 (centres unmarked)	Phase I dose escalation CTCAE v4.0, measured: ALT increased	patients with advanced solid tumours	dose not given, Total dosing grade 3 or higher	–	patients with adverse event	4%
Cc1cc(C)c(CNC(=O)c2cc(Cl)c3c(c2C)O[C@@](C)([C@H]2CC[C@H](N(C)C)CC2)O3)c(=O)[nH]1	CTCAE v4.0	human relapsed/refractory NHL	oral, 200 mg once daily, onset after cycle 1 day 1, overall treatment period	–	patients with TEAEs	100%
CNc1ccc(-c2nc3ccc(O)cc3s2)cc1 [carbon-11 labelled]	microPET/CT imaging	APP/PS1 mouse, AD model, heart	intravenous, 15 min	–	SUV	0.749 ± 0.482
O=C(Nc1nc2cccc(-c3ccc(CN4CCS(=O)(=O)CC4)cc3)n2n1)C1CC1	measured: hypertension	human rheumatoid arthritis patients	oral, 150 mg once daily, 4 weeks, regardless of relatedness	–	treatment-emergent adverse events	0%
CCN1/C(=C/C(C)=O)Sc2ccc(F)cc21	–	cynomolgus monkey	oral, 100 mg/kg, 0.5 h post-dose	–	heart rate	131 ± 11 beats/min
Nc1nc(NC2CC2)c2ncn([C@H]3C=C[C@@H](CO)C3)c2n1	–	Tat- transgenic mouse, hippocampus	subcutaneous osmotic pump, dose not given, 5 d	–	drug concentration	129000 ± 26400 ng/g
Cc1nc2ncnn2c(O)c1NS(=O)(=O)c1ccc(Br)cc1	–	octanol/buffer	pH 11, known kinase inactives set	–	logP	-1.23
O=C1NCCc2nc(OCc3cccc(F)c3)ccc21	measured: loss of Placing	Sprague-Dawley rat male	oral, 100 mg/kg, 30 min	direction not given	Irwin test score	0
CC1(C)C(/C=C/C=C/C=C/C=C2\N(CCCCS(=O)(=O)O)c3ccc4ccccc4c3C2(C)C)=[N+](CCCCS(=O)(=O)[O-])c2ccc3ccccc3c21	–	solution	66 µM, day 15, 4 °C, dark, 800 nm	–	fluorescence intensity loss	~60%
CCn1c(SCC(=O)Nc2ccccc2OC)nnc1-c1ccco1	–	octanol/buffer	pH 11	–	logP	2.44
OC[C@H]1OC(O)[C@H](O)[C@@H](O)[C@@H]1O (some centres unmarked)	–	aqueous solution	1 mM, together with: glucosamine	–	osmolality	0 mOsmol/kg

For quick reference, copied from above:
SMILES	test	test system	setting	scale	measurement	value
CNc1ccc(-c2nc3ccc(O)cc3s2)cc1 [carbon-11 labelled]	microPET/CT imaging	APP/PS1 mouse, AD model, heart	intravenous, 15 min	–	SUV	0.749 ± 0.482
